Experimental data of several laboratories.
Parts stem from different laboratories: compare values within a part only.
Sequence of UniProt Q02763 (whole entry, looked up): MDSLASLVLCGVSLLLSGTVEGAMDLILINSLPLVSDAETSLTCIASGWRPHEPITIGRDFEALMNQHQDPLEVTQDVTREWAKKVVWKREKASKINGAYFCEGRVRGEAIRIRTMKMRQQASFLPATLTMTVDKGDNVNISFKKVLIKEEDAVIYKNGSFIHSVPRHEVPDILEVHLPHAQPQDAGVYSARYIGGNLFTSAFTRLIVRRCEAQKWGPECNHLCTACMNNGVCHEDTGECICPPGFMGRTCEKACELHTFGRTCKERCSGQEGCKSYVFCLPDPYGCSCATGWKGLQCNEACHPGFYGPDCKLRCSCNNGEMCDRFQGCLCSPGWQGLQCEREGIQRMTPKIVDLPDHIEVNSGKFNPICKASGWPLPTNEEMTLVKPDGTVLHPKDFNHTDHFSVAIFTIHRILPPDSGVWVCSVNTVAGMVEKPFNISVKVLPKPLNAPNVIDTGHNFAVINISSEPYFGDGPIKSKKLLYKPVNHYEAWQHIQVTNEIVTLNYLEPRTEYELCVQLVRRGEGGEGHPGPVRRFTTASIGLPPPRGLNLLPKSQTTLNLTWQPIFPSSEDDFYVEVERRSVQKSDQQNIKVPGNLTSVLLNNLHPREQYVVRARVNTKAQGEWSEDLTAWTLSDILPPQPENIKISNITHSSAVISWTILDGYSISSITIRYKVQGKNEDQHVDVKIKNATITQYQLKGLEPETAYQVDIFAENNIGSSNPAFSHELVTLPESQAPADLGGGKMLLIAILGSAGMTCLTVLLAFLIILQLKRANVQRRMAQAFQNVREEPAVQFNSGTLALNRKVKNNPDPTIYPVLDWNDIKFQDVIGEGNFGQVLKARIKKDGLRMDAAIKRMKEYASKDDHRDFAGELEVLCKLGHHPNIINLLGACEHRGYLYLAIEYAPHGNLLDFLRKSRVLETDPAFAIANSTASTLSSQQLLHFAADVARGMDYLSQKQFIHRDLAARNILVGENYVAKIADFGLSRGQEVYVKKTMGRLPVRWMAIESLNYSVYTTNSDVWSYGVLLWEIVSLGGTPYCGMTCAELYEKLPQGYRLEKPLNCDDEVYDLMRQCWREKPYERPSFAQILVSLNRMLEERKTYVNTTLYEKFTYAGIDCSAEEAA
Sequence of UniProt Q8TDR2 (whole entry, looked up): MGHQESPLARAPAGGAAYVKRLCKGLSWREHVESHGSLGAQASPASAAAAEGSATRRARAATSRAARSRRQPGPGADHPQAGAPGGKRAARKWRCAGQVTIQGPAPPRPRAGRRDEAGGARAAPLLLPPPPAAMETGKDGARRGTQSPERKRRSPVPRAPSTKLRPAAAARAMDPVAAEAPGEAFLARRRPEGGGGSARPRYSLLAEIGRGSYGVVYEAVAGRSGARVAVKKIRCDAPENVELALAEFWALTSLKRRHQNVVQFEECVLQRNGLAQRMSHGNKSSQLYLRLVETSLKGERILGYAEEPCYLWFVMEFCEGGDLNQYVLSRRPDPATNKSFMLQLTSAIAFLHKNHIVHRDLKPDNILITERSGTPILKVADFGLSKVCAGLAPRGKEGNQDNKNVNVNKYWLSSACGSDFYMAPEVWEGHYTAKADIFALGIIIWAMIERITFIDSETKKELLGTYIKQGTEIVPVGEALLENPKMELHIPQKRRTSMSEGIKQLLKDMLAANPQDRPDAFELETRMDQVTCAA
Sequence of UniProt P35916 (whole entry, looked up): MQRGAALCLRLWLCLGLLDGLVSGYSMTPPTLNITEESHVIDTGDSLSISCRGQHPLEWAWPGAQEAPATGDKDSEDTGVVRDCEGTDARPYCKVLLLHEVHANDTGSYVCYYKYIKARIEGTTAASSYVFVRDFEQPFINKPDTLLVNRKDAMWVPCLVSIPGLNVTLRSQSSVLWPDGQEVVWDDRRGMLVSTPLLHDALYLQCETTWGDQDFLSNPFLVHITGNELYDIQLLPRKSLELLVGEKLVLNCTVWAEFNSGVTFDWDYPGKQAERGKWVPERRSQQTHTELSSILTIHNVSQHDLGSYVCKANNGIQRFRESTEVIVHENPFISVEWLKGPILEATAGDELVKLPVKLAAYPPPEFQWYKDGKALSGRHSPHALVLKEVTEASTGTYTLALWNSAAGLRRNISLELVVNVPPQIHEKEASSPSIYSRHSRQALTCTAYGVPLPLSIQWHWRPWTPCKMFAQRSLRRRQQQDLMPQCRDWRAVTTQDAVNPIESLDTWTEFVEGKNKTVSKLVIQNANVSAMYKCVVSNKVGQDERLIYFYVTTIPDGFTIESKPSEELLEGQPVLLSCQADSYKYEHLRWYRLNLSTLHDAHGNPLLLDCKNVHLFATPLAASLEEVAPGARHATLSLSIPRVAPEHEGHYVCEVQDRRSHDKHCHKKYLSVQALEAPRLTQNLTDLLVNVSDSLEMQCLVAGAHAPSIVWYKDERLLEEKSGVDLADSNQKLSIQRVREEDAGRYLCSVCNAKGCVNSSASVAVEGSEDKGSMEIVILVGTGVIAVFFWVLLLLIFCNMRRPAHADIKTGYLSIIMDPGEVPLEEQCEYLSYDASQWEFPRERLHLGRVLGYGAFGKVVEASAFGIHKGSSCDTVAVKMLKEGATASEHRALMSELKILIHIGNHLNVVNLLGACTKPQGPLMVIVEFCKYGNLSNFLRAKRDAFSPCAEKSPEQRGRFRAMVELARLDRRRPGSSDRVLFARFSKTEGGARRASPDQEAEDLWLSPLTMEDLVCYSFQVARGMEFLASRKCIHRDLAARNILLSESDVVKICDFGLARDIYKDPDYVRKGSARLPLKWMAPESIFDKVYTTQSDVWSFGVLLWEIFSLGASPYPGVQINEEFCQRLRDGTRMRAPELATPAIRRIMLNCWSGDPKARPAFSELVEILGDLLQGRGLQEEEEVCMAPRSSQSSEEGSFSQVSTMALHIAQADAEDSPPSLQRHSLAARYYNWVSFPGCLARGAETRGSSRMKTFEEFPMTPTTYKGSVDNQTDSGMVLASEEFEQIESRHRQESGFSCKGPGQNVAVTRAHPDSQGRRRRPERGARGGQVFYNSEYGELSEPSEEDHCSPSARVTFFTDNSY
Sequence of UniProt P68400 (whole entry, looked up): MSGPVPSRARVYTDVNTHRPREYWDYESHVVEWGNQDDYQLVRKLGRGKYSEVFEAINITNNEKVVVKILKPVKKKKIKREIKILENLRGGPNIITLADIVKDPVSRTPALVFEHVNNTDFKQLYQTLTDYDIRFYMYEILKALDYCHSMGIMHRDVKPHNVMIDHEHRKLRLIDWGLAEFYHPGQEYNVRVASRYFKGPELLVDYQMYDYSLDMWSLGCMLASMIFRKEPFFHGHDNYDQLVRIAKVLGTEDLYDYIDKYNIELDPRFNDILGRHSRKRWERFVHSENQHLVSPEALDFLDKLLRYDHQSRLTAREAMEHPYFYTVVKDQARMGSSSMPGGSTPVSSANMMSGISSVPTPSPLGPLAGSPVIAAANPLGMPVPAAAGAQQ
Sequence of UniProt Q9UIK4 (whole entry, looked up): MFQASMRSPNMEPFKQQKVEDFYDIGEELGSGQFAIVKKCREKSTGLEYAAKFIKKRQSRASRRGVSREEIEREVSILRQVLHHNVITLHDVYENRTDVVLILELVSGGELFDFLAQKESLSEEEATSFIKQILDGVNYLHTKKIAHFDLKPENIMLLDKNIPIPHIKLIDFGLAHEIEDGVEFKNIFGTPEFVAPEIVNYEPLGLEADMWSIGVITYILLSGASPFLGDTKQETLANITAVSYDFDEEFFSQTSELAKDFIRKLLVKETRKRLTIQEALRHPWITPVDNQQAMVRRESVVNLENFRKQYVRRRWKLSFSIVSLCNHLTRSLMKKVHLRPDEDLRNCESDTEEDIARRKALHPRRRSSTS
Sequence of UniProt P53667 (whole entry, looked up): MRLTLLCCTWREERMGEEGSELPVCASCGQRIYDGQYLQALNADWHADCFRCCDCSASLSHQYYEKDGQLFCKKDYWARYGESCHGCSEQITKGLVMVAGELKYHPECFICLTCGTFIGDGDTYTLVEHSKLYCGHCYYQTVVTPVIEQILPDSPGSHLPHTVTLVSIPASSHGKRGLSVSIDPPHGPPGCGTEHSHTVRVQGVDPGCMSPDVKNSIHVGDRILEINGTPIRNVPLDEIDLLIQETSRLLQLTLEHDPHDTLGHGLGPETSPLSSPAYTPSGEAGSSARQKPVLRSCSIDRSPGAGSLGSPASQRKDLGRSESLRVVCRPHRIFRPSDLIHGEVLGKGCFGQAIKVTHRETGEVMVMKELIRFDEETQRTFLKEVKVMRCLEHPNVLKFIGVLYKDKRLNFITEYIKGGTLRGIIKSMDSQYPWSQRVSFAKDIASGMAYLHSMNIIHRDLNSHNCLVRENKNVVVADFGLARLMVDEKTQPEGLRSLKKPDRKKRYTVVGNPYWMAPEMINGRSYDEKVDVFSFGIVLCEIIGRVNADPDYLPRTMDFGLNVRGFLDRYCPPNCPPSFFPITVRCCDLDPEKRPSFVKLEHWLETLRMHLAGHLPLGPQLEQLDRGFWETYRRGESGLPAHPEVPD

Set 1
Target: PABPC1L2, full length, GST fusion (mouse, UniProt A0ABA7IW68)
Method: RNAcompete
Form: RNA
Matrix: in vitro
Tested at: 20 nM
Setting: 7-mer, probes averaged, single round
Reference: mean of 7-mers
Direction: higher = stronger binding
Residues (chain): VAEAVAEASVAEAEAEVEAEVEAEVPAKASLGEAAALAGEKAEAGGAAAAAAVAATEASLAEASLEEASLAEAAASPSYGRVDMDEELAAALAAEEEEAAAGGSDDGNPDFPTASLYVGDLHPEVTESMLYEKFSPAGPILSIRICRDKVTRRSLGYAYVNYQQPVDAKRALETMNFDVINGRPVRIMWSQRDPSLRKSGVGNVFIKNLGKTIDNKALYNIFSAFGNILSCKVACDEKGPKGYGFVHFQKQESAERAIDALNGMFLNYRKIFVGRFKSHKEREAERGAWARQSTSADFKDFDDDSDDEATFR
Oligonucleotide	7-mer Z-score
ACCCGUC	-0.396
AAUAAAA	5.26
UAAUCCG	-0.208
UAGUGCU	-0.257
UGCAGCU	-0.257
UUAGUGC	-0.13
CGGAGCC	-0.142
GGCGCUU	-0.179

Set 2
Structure (SMILES): O=C(NC[C@@H]1[C@H]2CN(C(=O)OCc3cc(C(F)(F)F)cc(C(F)(F)F)c3)C[C@@H]12)c1ccc2[nH]nnc2c1
Observed: cell-free assay
Method: competition with immobilised ligand
Tested at: 1 µM
target	remaining binding [%]
LRRK2 (Homo sapiens, UniProt Q5S007, G2019S)	91
PRKACA (Homo sapiens, UniProt P17612)	100
TEK (Homo sapiens, UniProt Q02763)	89
RET (Homo sapiens, UniProt P07949, V804M)	88
STK35 (Homo sapiens, UniProt Q8TDR2)	100
CSNK2A1 (Homo sapiens, UniProt P68400)	84
LIM domain kinase 1 (LIMK1, Homo sapiens, UniProt P53667)	100
PRPF4B (Homo sapiens, UniProt Q13523)	100
ACVR2B (Homo sapiens, UniProt Q13705)	100
SRPK3 (Homo sapiens, UniProt Q9UPE1)	100
FLT4 (Homo sapiens, UniProt P35916)	88
DAPK2 (Homo sapiens, UniProt Q9UIK4)	85
CDK5 (Homo sapiens, UniProt Q00535)	100
FLT3 (Homo sapiens, UniProt P36888, N841I)	90

Set 3
Target: Myosin light chain kinase 2, skeletal/cardiac muscle (MYLK2, Homo sapiens, UniProt Q9H1R3)
Sequence of UniProt Q9H1R3 (whole entry, looked up): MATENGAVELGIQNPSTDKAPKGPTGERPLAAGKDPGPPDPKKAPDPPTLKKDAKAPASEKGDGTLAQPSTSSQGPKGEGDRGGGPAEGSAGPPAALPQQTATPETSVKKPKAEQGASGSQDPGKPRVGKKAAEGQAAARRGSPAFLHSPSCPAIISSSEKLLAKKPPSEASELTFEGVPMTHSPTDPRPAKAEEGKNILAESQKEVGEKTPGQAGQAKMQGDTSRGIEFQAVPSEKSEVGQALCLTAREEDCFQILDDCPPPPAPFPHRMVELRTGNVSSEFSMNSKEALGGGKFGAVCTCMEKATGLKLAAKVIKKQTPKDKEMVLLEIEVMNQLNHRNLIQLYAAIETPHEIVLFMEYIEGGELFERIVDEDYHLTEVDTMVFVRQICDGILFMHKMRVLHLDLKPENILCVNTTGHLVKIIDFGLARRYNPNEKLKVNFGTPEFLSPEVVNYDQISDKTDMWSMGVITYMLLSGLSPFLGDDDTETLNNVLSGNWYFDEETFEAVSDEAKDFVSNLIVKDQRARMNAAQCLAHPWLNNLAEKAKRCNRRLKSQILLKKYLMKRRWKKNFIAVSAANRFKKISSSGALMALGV
Observed: enzyme activity
Action: inhibitor
Tested at: 0.5 µM
Reference: control
Compound	remaining activity
Cn1sc(=O)n(Cc2ccccc2)c1=O	101%
Nc1ncnc2n[nH]c(Nc3ccc(F)cc3)c12	87.3%
O=S(=O)(c1cccc2cnccc12)N1CCCNCC1	99.6%
O=C(Nc1cccc(Nc2cc(Nc3cccc(C(F)(F)F)c3)ncn2)c1)C1CC1	98.9%
Cc1nc(-c2ccccc2)c(-c2ccncc2)o1	100%
Cn1c2ccccc2c2c3c(c4c5ccccc5n(CCC#N)c4c21)CNC3=O	59.6%
OCC(O)CCON=C1C(c2c(O)[nH]c3ccccc23)=Nc2ccccc21 (centres unmarked)	27.3%
Cc1cccc(-c2[nH]c(C(C)(C)C)nc2-c2ccc3c(c2)OCO3)n1	99.2%
COc1ccc(OC)c2c(=S)c3ccccc3[nH]c12	95.7%
COc1ccc(CNC(=O)Nc2ncc([N+](=O)[O-])s2)cc1	98.5%
COc1ccc(C(=O)Nc2sc3c(c2C(N)=O)CCCC3)cc1OC	94.4%
N#CC(C#N)=C(N)/C(C#N)=C/c1ccc(O)cc1	99.4%
CN(C)c1ccc(C=C2C(=O)Nc3ccccc32)cc1	82.6%
O=C(O)c1ccc2c3c1cccc3c(=O)n1c3ccccc3nc21	99.6%

Set 4
Target: TAR DNA-binding protein 43, full length, His tag (TARDBP, Homo sapiens, UniProt Q13148, residues 1-414)
Method: RNA Bind-n-Seq
Form: RNA
Matrix: in vitro
Tested at: 20 nM
Setting: 6-mer, flanks averaged, single round
Added: 150 mM LiCl
Reference: input library
Direction: higher = stronger binding
Oligonucleotide	6-mer enrichment (R)
GAAAAG	0.921
CUAUUC	0.904
AACACA	0.84
UACCCC	1.12
AGCAAC	0.851
AUGUUC	0.985
UCGUUA	0.893
ACUUCC	0.872

Some of these lines once more (set 3):
Compound	remaining activity
CN(C)c1ccc(C=C2C(=O)Nc3ccccc32)cc1	82.6%
OCC(O)CCON=C1C(c2c(O)[nH]c3ccccc23)=Nc2ccccc21 (centres unmarked)	27.3%
